Published values collected from several papers.
Each line is one published result; not all experiments were run side by side.

SMILES	host	matrix	route	dose	setting	Tmax [min]
NC(=O)c1c(F)ccc(OCc2nc3cc(Cl)cnc3s2)c1F	mouse	plasma	oral	3 mg/kg		24
CN1CCc2cc(Nc3ncc(C(F)(F)F)c(NCc4cc[nH]n4)n3)ccc2C1	C57BL/6 mouse	plasma	oral	50 mg/kg	single dose	50
CN1CCC(N[C@@H]2CCc3[nH]c4c(C(N)=O)ccc(-c5ccccc5Cl)c4c3C2)CC1	mouse	plasma	oral	10 mg/kg		160
O.O=C(O)/C=C\C(=O)O.O=c1[nH]cnc2n[nH]cc12	female BALB/c mouse	plasma	oral	30 mg/kg		30
Cc1cccc(O[C@H]2CCC[C@@H](C(C)CNCc3ccncc3)C2)c1 (relative stereo)	female C57BL/6 mouse	brain	oral	25 mg/kg		60
CC(C)Cn1c(SCC(=O)N2CCc3ccccc3C2)nc2cc(Cl)ccc2c1=O	male C57BL/6 mouse	plasma	intraperitoneal	10 mg/kg		15
C[N+]1(CC(=O)OC2CCCCCCCCCCC2)CCCCC1	mouse	plasma	intraperitoneal	2.5 mg/kg	single dose	30
NS(=O)(=O)NCC(F)(F)c1ccccc1F	mouse	plasma	oral	5 mg/kg		30
CCS(=O)(=O)c1ccccc1C(=O)N1CCN(c2nc3ccc(F)cc3s2)C[C@@H]1C	mouse	plasma	oral	3 mg/kg		30
CCC(=C(c1ccc(Cl)cc1)c1ccc(OCCN2CCOCC2)cc1)c1ccc(OC)cc1	male C57BL/6 mouse	plasma	oral	400 mg/kg	single dose	240
CCCCCCCCN(CCC(=O)Nc1ccccc1)C(=O)c1ccccn1	C57BL/6 mouse	serum	intraperitoneal	40 mg/kg		300
Cc1cc(O)cc(O)c1C(=O)c1c2c3c(c(O)cc(C)c3oc1=O)C(=O)c1c(O)cc(O)cc1-2	male Kunming mouse	plasma	intraperitoneal	30 mg/kg		15.9
Cc1cc(NCCOC(C)C)c2nc(N3CCOC[C@H]3C)cc(=O)n2c1	C57BL/6 mouse	plasma	intraperitoneal	10 mg/kg	single dose	5
N#Cc1cnc2cc(OCC3CCNCC3)c(F)cc2c1Nc1cc(F)c(OCc2cccc(Cl)n2)cc1Cl	female CD-1 mouse	plasma	intravenous	5 mg/kg		0
O=C1OC2(c3ccccc31)c1cc(I)c(O)c(I)c1Oc1c2cc(I)c(O)c1I	female C57BL/6 mouse	plasma	intraperitoneal	50 mg/kg		18
Cn1ccc2cc(-n3c(=O)[nH]c4sc5c(c4c3=O)CCCC5)ccc21	C57BL/6 mouse	plasma	intraperitoneal	10 mg/kg		15
CCCc1nc2cc(C(=O)N3CCC4(CC3)CC(=O)c3cc5c(cc3O4)OC(C)(C)CC5)cc(C)c2[nH]1	male C57BL/6 mouse	plasma	oral	50 mg/kg		120
CCOc1c(C(C)(C)O)sc2cnc(Nc3ccc(N4CCC(N5CC6(COC6)C5)CC4)cc3OC)nc12	male C57BL/6 mouse	plasma	oral	30 mg/kg		120
O=C(C=CC(Cc1ccccc1)Nc1ccnc2cc(Cl)ccc12)NCCN1CCOCC1 (stereo not shown)	female CD-1 mouse	plasma	oral	5 mg/kg	single dose	60

Repeated from above:
SMILES	host	matrix	route	dose	setting	Tmax [min]
CCCc1nc2cc(C(=O)N3CCC4(CC3)CC(=O)c3cc5c(cc3O4)OC(C)(C)CC5)cc(C)c2[nH]1	male C57BL/6 mouse	plasma	oral	50 mg/kg		120
CCOc1c(C(C)(C)O)sc2cnc(Nc3ccc(N4CCC(N5CC6(COC6)C5)CC4)cc3OC)nc12	male C57BL/6 mouse	plasma	oral	30 mg/kg		120
